Assay results gathered from unrelated publications.
Protocols differ between the studies behind these lines. “And” joins repeats or separate records; there may be more than shown. ± marks the error that the study gave.

Structure (SMILES) | cell line | assay | test system | setting | how to read | quantity | result
CC(C)(C)c1cc(-c2ccc3cccnc3n2)nc(-c2ccc3cccnc3n2)c1.COc1ccncc1.[Cl-].[Cl-].[Ru+2].c1ccc2cc3nc4c5cccnc5c5ncccc5c4nc3cc2c1 | B16-F10 | resazurin | – | added: light 633 nm, 100 J/cm2 | relative to: dark EC50 over light EC50 | phototoxicity index | 44
O=C(C[Se]C(=O)c1ccc2ccccc2c1)Nc1cccc(C(F)(F)F)c1 | NCI60 breast subpanel | NCI60 five-dose screen | – | – | – | GI50 | 2030 nM
CCOc1cncc(-c2ccc(NC(=O)C3(c4ccnc(NS(=O)(=O)C5CC5)n4)CCOCC3)nc2)n1 | renal cancer | cell viability, CellTiter-Glo | DMSO 0.1% | 72 h, line code 1183 | – | IC50 | 209 nM
COc1ccccc1-c1ccncc1C(=O)Nc1nnc(OCc2ccc(Cl)cc2)s1 | PEO1 BRCA2-mutant | – | – | 1.00 µM, added: olaparib 2 µM | – | colony survival | 0%
COc1cc(N2CCN(C(=O)C3CCCN3)CC2)ccc1Nc1ncc(Cl)c(Nc2ccccc2P(C)(C)=O)n1 (centres unmarked) | NCI-H3122 | flow cytometry | – | 500 nM, 24 h | – | cells in G2 phase | 5.8%
[BH3-][P+]1(c2ccccc2)CCCCC1 | SW-620 | MTT | – | 72 h | relative to: IC50 HaCaT over IC50 SW-620 | selectivity index | 13.1
CC1(C)CC[C@@]2(CO)C(=C3C=C[C@@H]4[C@@]5(C)CC[C@H](O)[C@@](C)(CO)[C@@H]5CC[C@@]4(C)[C@]3(C)C[C@@H]2O)C1 | HepG2, SIRT1 siRNA | Western blot, measured: phospho-mTOR | – | concentration not given, high dose, unit not given, added: ethanol | relative to: β-actin | protein level | 0.641 and 0.554 and 1.07
Cc1ccncc1.[Cl-].[Cl-].[Ru+2].c1cc(-c2ccc3cccnc3n2)nc(-c2ccc3cccnc3n2)c1.c1ccc2cc3nc4c5cccnc5c5ncccc5c4nc3cc2c1 | B16-F10 | cytotoxicity, resazurin | – | dark | – | EC50 | 77000 ± 4300 nM
CNS(=O)(=O)Nc1nccc(Cc2c(C)c3ccc(Oc4ncccc4F)cc3oc2=O)c1F | KU812 | cell viability | – | 7 days | – | IC50 | 1.07 nM
COC(=O)c1cc(NC2=NC(=O)C(=Cc3ccc(N(C)C)cc3)S2)ccc1OC(C)=O | MCF7 | measured: TRIP13 mRNA | – | 0.81 µM (IC50), 24 h | relative to: DMSO | fold change | 0.444
CCN(CC)CC(=O)Nc1cccc(-n2cc(-c3ccc4ccc(-c5cn(-c6cccc(NC(=O)CN(CC)CC)c6)nn5)cc4c3)nn2)c1 | RCC4 | PCR angiogenesis array, measured: PLAU | – | 5 x IC50, 4 h, normoxia | relative to: untreated | fold regulation | -1.36
NC(=O)c1ccc(-c2ccccc2Cl)c2c3c([nH]c12)CCC(N)C3 (centres unmarked) | HuCCT-1 | cell growth or viability | – | 96 h | – | IC50 | 5.06 nM
COc1cccc2c1cc1c3c(cc4c(c32)OCO4)[C@@H]2c3c4c5c(cc6c(c5c5cccc(OC)c35)OCO6)CCN4[C@@H]2N1C (racemic) | S102 | cytotoxicity, MTT | – | 50 µg/mL, 48 h | – | inhibition | < 50%
Cn1ncc2cc(-c3cncc(Cl)c3N3CCC4(CCNC4=O)CC3)ccc21 | LS174T | gene expression, microarray, measured: BHLHE41 mRNA | – | concentration not given, 24 h | relative to: untreated cells | log2 fold change | 2.06
Cc1ncsc1-c1ccc(C(C)NC(=O)C2CC(O)CN2C(=O)C(NC(=O)CCCCCCCCCCN2CCCC(Nc3ncc(Cl)c(Nc4ccccc4S(=O)(=O)C(C)C)n3)C2)C(C)(C)C)cc1 (centres unmarked) | 22Rv1 | RNA-seq, measured: ZNF627 mRNA | – | concentration not given | relative to: DMSO | log2 fold change | -1.47
O=C(N1CCCC1)n1cc(-c2ccc(-c3ccccc3)cc2)nn1 | mouse T cells | N-terminal labelling proteomics, measured: Skp1a N-terminal peptide | – | 0.001 µM, 6 h | relative to: DMSO | SILAC ratio per peptide | 1.62 and 1.18 and 1.15
COC1=C2CC(C)CC(OC)C(O)C(C)C=C(C)C(OC(N)=O)C(OC)C=CC=C(C)C(=O)NC(=CC1=O)C2=O (centres unmarked) | Rh30 | ChIP-seq, measured: H3K36me3 peak | – | concentration not given, promoter-TSS chr11:10816400-10831599 | relative to: untreated control | log fold change | -0.596
COc1ccc(NC(=O)c2ccc3[nH]c(-c4ccc(N(C)C)cc4)nc3c2)cn1 | HCEC-hTERT | IncuCyte | – | concentration not given, 0 h | – | dead cell to confluence ratio | 1.98 and 1.06 and 0.746
O=C(C[Se]C(=O)c1cc2ccccc2o1)Nc1cccc(C(F)(F)F)c1 | NCI60 breast subpanel | NCI60 five-dose screen | – | – | – | GI50 | 1850 nM
CC(C)c1ccc(N(C)c2ccc3c(c2)OCC[C@H]3CNc2cnccc2C(=O)O)cc1 | 5637 | cell growth, CellTiter-Glo | – | 7 days | – | IC50 | 6.11 nM
CCN(C(=O)c1cc(F)ccc1Oc1nncnc1N1CCC2(C1)CN([C@H](CCCN(C)CCOC)C(C)C)C2)C(C)C | MHH-ES-1 | cell growth or viability | – | 7 days | – | GI50 | > 10000 nM
C=CC(=O)N1CCCC(n2c(=O)c3ncccc3n(Cc3ccc(Oc4ccccc4)cc3)c2=O)C1 (centres unmarked) | SU-DHL-8 | cell growth or viability, MTT | – | 72 h | – | IC50 | 300 nM
CN1CCCNC(=O)c2cccc(c2)C(=O)NCCCN(C)CCCNc2cccc3c2C(=O)c2cccc(c2C3=O)NCCC1 | SAS | RNA-Seq, measured: VPS39 mRNA | – | 1 µM, 6 h | relative to: untreated cells | log2 fold change | -0.866
CC(C)(C)c1cc(-c2ccc3cc4ccccc4nc3n2)nc(-c2ccc3cc4ccccc4nc3n2)c1.[Cl-].[Cl-].[Ru+2].c1ccc2cc3nc4c5cccnc5c5ncccc5c4nc3cc2c1 | B16-F10 | resazurin | – | added: light 523 nm, 20 mW, 100 J/cm2 | – | EC50 | 16300 nM
CCc1cc(N2C(=S)N(c3ccc(C#N)c(C(F)(F)F)c3)C(=O)C2(C)C)ccc1OCCN1CCN(CC(=O)Nc2cccc(NC3CCC(=O)NC3=O)c2)[C@H](C)C1 (some centres unmarked) | VCaP | androgen-stimulated proliferation | – | 168 h | – | GI50 | 11 nM
O=CCNCCOn1c(=O)n(OCCNCCO)c(=O)n(OCCNCCOn2c(=O)n(OCCNCCO)c(=O)n(OCCNCCO)c2=O)c1=O | A549 | cell growth or viability, MTT | – | 25 µg/mL, 72 h | – | viability | 47.2%

Repeated from above:
Structure (SMILES) | cell line | assay | test system | setting | how to read | quantity | result
O=C(N1CCCC1)n1cc(-c2ccc(-c3ccccc3)cc2)nn1 | mouse T cells | N-terminal labelling proteomics, measured: Skp1a N-terminal peptide | – | 0.001 µM, 6 h | relative to: DMSO | SILAC ratio per peptide | 1.62 and 1.18 and 1.15
COC1=C2CC(C)CC(OC)C(O)C(C)C=C(C)C(OC(N)=O)C(OC)C=CC=C(C)C(=O)NC(=CC1=O)C2=O (centres unmarked) | Rh30 | ChIP-seq, measured: H3K36me3 peak | – | concentration not given, promoter-TSS chr11:10816400-10831599 | relative to: untreated control | log fold change | -0.596
COc1ccc(NC(=O)c2ccc3[nH]c(-c4ccc(N(C)C)cc4)nc3c2)cn1 | HCEC-hTERT | IncuCyte | – | concentration not given, 0 h | – | dead cell to confluence ratio | 1.98 and 1.06 and 0.746
O=C(C[Se]C(=O)c1cc2ccccc2o1)Nc1cccc(C(F)(F)F)c1 | NCI60 breast subpanel | NCI60 five-dose screen | – | – | – | GI50 | 1850 nM
